Assay results of several laboratories.
Protocols differ between the studies behind these lines. Numbers after ± are the reported error.
CTSD: Cathepsin D (CTSD, Homo sapiens, UniProt P07339)
Chain of UniProt P07339 (whole entry, looked up): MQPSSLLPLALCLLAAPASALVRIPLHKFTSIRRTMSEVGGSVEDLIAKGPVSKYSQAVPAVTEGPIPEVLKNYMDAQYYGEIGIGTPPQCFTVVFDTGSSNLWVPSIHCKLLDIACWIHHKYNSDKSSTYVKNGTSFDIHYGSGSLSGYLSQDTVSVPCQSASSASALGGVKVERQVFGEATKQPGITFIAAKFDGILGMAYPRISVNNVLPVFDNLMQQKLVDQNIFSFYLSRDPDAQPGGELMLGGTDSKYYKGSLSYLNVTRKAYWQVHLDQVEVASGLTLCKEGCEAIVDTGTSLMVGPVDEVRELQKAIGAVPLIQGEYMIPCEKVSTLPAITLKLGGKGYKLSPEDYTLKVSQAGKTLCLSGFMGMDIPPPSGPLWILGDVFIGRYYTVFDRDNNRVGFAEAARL
CYP3A4: Cytochrome P450 3A4 (CYP3A4, Homo sapiens, UniProt P08684)
Chain of UniProt P08684 (whole entry, looked up): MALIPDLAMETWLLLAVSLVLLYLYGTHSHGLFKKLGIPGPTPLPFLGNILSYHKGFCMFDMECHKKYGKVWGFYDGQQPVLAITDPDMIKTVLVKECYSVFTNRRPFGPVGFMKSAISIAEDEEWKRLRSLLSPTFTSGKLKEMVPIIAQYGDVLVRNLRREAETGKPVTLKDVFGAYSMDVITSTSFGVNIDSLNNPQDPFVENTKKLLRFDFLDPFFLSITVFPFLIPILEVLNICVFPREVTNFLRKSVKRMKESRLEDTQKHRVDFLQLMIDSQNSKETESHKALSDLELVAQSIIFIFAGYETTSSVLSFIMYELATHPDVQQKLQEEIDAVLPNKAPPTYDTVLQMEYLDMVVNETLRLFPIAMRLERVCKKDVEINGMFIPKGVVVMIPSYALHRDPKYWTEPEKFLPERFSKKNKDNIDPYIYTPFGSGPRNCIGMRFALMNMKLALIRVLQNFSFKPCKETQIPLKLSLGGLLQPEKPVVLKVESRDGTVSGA
Chain of UniProt Q16696 (whole entry, looked up): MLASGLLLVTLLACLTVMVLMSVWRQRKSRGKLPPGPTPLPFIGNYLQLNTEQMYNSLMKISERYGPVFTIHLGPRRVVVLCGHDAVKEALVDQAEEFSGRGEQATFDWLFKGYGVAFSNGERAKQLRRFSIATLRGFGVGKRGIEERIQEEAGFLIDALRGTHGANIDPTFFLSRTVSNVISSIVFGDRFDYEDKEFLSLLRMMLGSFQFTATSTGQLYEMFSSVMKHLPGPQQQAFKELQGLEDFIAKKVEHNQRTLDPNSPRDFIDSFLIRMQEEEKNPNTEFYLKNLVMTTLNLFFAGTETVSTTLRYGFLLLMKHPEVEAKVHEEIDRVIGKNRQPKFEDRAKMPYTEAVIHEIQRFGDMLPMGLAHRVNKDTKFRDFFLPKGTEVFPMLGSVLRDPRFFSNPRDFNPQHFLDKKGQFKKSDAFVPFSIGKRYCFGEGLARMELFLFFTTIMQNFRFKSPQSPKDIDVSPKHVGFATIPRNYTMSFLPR
Chain of UniProt Q96JM7 (whole entry, looked up): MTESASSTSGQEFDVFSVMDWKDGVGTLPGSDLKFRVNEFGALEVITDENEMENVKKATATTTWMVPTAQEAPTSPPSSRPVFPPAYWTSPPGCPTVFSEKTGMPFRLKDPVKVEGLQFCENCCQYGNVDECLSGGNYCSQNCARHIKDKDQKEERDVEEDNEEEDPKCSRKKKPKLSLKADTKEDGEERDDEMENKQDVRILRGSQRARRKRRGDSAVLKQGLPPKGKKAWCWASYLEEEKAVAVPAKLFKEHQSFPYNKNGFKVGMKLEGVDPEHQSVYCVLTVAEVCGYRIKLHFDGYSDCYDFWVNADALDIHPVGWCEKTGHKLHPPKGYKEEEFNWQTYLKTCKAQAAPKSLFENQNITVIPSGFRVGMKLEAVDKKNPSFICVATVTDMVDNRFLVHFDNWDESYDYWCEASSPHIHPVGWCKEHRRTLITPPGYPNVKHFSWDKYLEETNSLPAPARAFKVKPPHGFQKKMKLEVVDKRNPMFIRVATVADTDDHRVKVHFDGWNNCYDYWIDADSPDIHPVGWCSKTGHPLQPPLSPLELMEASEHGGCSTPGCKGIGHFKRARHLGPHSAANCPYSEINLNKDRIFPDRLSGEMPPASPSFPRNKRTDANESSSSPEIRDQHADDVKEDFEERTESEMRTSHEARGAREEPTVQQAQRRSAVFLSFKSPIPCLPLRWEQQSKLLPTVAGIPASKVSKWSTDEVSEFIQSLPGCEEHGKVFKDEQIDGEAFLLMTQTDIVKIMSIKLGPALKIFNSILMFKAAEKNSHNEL
Chain of UniProt P33527 (whole entry, looked up): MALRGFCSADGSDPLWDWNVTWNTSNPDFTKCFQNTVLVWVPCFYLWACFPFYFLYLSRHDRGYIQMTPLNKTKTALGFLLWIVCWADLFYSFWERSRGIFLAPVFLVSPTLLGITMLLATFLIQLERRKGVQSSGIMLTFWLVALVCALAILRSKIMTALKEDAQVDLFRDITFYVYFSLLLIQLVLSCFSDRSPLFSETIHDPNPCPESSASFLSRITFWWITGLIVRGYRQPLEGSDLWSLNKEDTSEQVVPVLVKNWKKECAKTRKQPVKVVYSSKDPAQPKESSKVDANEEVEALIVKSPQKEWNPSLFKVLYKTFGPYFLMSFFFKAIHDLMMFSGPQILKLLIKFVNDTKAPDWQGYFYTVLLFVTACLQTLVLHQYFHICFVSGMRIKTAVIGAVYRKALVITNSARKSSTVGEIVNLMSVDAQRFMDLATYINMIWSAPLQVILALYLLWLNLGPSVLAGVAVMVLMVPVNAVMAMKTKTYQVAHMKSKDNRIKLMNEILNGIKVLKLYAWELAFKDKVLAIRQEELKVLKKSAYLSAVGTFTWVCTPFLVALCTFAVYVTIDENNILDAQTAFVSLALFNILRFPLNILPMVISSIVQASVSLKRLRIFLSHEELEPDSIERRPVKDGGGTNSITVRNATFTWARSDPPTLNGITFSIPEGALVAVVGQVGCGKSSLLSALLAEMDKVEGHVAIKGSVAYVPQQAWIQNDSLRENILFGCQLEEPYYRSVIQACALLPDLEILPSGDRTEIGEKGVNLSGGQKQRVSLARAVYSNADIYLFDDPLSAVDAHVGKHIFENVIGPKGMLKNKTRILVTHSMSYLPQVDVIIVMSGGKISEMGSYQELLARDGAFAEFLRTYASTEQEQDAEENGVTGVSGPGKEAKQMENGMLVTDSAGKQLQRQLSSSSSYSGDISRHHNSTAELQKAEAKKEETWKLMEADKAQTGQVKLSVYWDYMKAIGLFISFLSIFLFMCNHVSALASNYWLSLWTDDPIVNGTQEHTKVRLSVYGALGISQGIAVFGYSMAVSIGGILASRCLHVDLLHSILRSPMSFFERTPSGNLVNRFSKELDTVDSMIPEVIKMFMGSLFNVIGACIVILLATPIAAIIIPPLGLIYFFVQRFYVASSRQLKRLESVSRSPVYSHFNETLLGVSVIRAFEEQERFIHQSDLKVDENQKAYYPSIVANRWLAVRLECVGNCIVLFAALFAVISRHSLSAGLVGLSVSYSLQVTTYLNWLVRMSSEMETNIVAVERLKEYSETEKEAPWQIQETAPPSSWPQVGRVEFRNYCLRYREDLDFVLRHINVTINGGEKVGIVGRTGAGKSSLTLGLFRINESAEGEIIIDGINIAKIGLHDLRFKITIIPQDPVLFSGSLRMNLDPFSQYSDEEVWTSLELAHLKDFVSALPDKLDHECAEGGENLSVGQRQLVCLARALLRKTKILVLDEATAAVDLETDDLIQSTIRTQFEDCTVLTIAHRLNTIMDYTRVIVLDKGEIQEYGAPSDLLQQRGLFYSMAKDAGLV

`CC(C)CC(=O)N[C@H](C(=O)N[C@H](C(=O)N[C@@H](CC(C)C)[C@@H](O)CC(=O)N[C@@H](C)C(=O)N[C@@H](CC(C)C)[C@@H](O)CC(=O)NCCCC[C@H](NC(=O)CCOCCOCCNC(=O)CN1CCN(CC(=O)O)CCN(CC(=O)O)CC1)C(=O)O)C(C)C)C(C)C` gave a dissociation half-life of 3220 s (CTSD; binding, surface plasmon resonance).
`Cc1oc2ccccc2c1Cc1cc(I)c(OCC(=O)O)c(I)c1`: “activation at negative voltages” “inhibited” (KCNH2 (Homo sapiens, UniProt Q12809, Y652A); potassium current, two-electrode voltage clamp; Xenopus oocytes; 50 µM).
The IC50 of `CCC#Cc1ccc(-c2ccccc2)cc1` is reported as 30 to 90 µM (Cytochrome P450 2A13 (Homo sapiens, UniProt Q16696); enzyme activity, inhibitor; with: 10 µM coumarin).
`O=C1CCSC1` gave an inhibition of 47.4% (THP-1; pyroptotic LDH release; 2 µM, 40 min, with: LPS then nigericin).
With `CC(C)CC(=O)N[C@H](C(=O)N[C@H](C(=O)N[C@@H](CC(C)C)[C@@H](O)CC(=O)N[C@@H](C)C(=O)N[C@@H](CC(C)C)[C@@H](O)CC(N)=O)C(C)C)C(C)C` the dissociation half-life was 433 s (CTSD; SPR).
With `O=C(O)c1cc(O)c2c(c1)C(=O)c1cccc(O)c1C2=O` the viability was 94.9 ± 20.9% (HK-2 co-cultured with HepaRG; MTT; 16.67 µM, 24 h; reference: untreated control).
`O=C(Nc1c2c(cc3c1CCC3)CCC2)NS(=O)(=O)/C=C/c1nccs1` gave an inhibition of less than 0% (human CYP3A4; human liver microsomes; 10 µM, pH 7.4, with: testosterone).
`CNCc1cc(-c2ccccc2F)n(S(=O)(=O)c2cccnc2)c1` gave a fraction metabolised of 5.5% (CYP2C19; recombinant CYP with ISEF scaling).
For `CCn1c(C(=O)N(C2CC2)C2CC2)cc2c3c(ncn3C)c(Nc3cc(C)n(C)n3)nc21`, the EC50 was 2700 nM (CYP1A2 (human); inducer, measured: CYP1A2 mRNA; cultured human hepatocytes; 3 days).
Under “AUC(0-t) (geometric mean)”, `Cc1cc(Nc2ncnc3ccc(NC4=NC(C)(CO)CO4)cc23)ccc1Oc1ccn2ncnc2c1` (stereo not shown) is recorded as 482 ng·h/mL (CYP3A4; human, plasma; oral, 300 mg tucatinib single dose, day 1, tucatinib alone).
Under “FRAP recovery half-time”, `O=C(c1ccc(C(=O)N2CCC(N3CCCC3)CC2)c(Nc2ccccc2)c1)N1CCC(N2CCCC2)CC1` is recorded as 6.5 s (Lethal(3)malignant brain tumor-like protein 3, MBT domains (Homo sapiens, UniProt Q96JM7); FRAP; human cells; 0.05 µM).
With `NC(Cc1ccc(Cl)cc1)C(=O)O` (racemic) the inhibition was -15.5% (THP-1; pyroptotic LDH release; 2 µM, 40 min, with: LPS then nigericin).
The inhibition of `NC/C(=C\F)COc1cccc(Cn2c(=S)[nH]c(=O)c3[nH]cnc32)c1` is reported as less than 50% (ABCC1 (Homo sapiens, UniProt P33527); calcein AM efflux; HEK293 expressing ABCC1; 30 µM).
`CCCCC1=NC2(CCCC2)C(=O)N1Cc1ccc(-c2ccccc2S(=O)(=O)Nc2noc(C)c2C)c(COCC)c1` has an EC50 of 1750 nM (CYP2C19; enzyme induction, inducer; human).
With `CC(C)=CCc1c(O)cc2c(c1O)C(=O)C[C@@H](c1ccc(O)cc1)O2` the inhibition was less than 10% (human CYP3A4; 10 µM, pH 7.4).
`C[C@H]1CN(C2COC2)CCN1c1ccc(Nc2cc(-c3ccnc(N4CCn5c(cc6c5CC(C)(C)C6)C4=O)c3CO)cn(C)c2=O)nc1` has a remaining compound of 58.9 ± 8% (human liver microsomes CYP; human liver microsomes; 1 µM, 60 min, pH 7.4, with: NADPH; reference: 0 min).
`CC(C)=CCc1c(O)cc(O)c2c1O[C@H](c1ccc(O)cc1)CC2=O` has an inhibition of 31.4 ± 2.8% (human CYP3A4; 10 µM, pH 7.4).
For `COc1cc2c(c(OC)c1OC)-c1c(cc3c(c1OC)OCO3)[C@H](OC(=O)c1ccccc1)[C@@](C)(O)[C@@H](C)C2`, the IC50 ratio was 9.4 (human recombinant CYP3A4 and CYP3A5; measured: 6β-hydroxytestosterone; 15 min, pH 7.4, with: testosterone 50 µM; reference: CYP3A4 over CYP3A5).
Under “aminopyrine N-demethylase activity”, `O=C(/C=C/c1cccnc1)NCCCCC1CCN(C(=O)c2ccccc2)CC1` is recorded as 5.25 nmol/min/mg (rat cytochrome P450; inhibitor; rat liver microsomes; 1 µM, 15 min, pH 7.4, with: aminopyrine 2 mM).
`COc1ccc2[nH]c([S+]([O-])Cc3ncc(C)c(OC)c3C)nc2c1` (stereo not shown): “relative enzyme activity” 23.6 (CYP1A2 human; inducer; hepatocytes lot HC3-31; 100 µM; reference: DMSO).
The half-life mean of `CC[C@H]1[C@@H](O)[C@@H]2[C@H](CC[C@]3(C)[C@@H]([C@H](C)CCNC(=O)NS(=O)(=O)c4ccc(C(C)(C)C)cc4)CC[C@@H]23)[C@@]2(C)CC[C@@H](O)C[C@@H]12` is reported as 10.9 h (CYP3A4; human, plasma; dose not given, compound alone).
`COc1c(O)c(C)cc2c1C(=O)c1c(cc(O)c(O)c1O)C2=O` has a viability of 88.6 ± 3.22% (HK-2 co-cultured with HepaRG; MTT; 16.67 µM, 24 h; reference: untreated control).

Repeated from above:
`CCCCC1=NC2(CCCC2)C(=O)N1Cc1ccc(-c2ccccc2S(=O)(=O)Nc2noc(C)c2C)c(COCC)c1` has an EC50 of 1750 nM (CYP2C19; enzyme induction, inducer; human).
`C[C@H]1CN(C2COC2)CCN1c1ccc(Nc2cc(-c3ccnc(N4CCn5c(cc6c5CC(C)(C)C6)C4=O)c3CO)cn(C)c2=O)nc1` has a remaining compound of 58.9 ± 8% (human liver microsomes CYP; human liver microsomes; 1 µM, 60 min, pH 7.4, with: NADPH; reference: 0 min).
